# Measurements collected from several papers.
# Each line is one published result; not all experiments were run side by side. ± gives the spread as reported.
SMILES,organism,test,system,setting,scale,endpoint,value
CC[C@H](C)[C@H](NC(=O)[C@H](CCCCN)NC(=O)[C@H](CCCCN)NC(=O)[C@H](CC(C)C)NC(=O)[C@H](CCCCN)NC(=O)[C@H](CCC(=O)O)NC(=O)[C@H](CCCCN)NC(=O)[C@@H](NC(=O)[C@H](CCCCN)NC(=O)[C@H](CC(N)=O)NC(=O)[C@H](CCCNC(=N)N)NC(=O)[C@H](Cc1ccccc1)NC(=O)[C@H](CCCCN)NC(=O)[C@H](CCCNC(=N)N)NC(=O)[C@H](CC(C)C)NC(=O)[C@H](CCCNC(=N)N)NC(=O)[C@H](CCCCN)NC(=O)[C@H](CCCNC(=N)N)NC(=O)[C@@H](N)CC(C)C)[C@@H](C)CC)C(=O)NCC(=O)N[C@@H](CCC(N)=O)C(=O)N[C@@H](CCCCN)C(=O)N[C@H](C(=O)N[C@@H](CCC(N)=O)C(=O)NCC(=O)N[C@@H](Cc1ccccc1)C(=O)N[C@H](C(=O)N1CCC[C@H]1C(=O)N[C@@H](CCCCN)C(=O)N[C@@H](CC(C)C)C(=O)O)C(C)C)[C@@H](C)CC,Stenotrophomonas maltophilia,inhibition zone,CGMCC 1.179,"LB agar, overnight",,lethal concentration,2.99 µM
CN[C@@H]1[C@H](O)[C@H](NC)[C@H]2O[C@]3(O)[C@H](O[C@@H]2[C@H]1O)O[C@H](C)C[C@@]3(O)CNCc1ccc(OC(F)(F)F)cc1,Neisseria meningitidis,,ATCC 13077,40 µg per disc,,inhibition zone diameter,18 to 19 mm
Nc1ccn(C[C@@H](CO)OCP(=O)(O)OCCCS(=O)(=O)CCCCCCCCCCCCC2CCC2)c(=O)n1,human alphaherpesvirus 2,,"HFF, G",,reference: CC50 over EC50,selectivity index,498
F[P-](F)(F)(F)(F)F.F[P-](F)(F)(F)(F)F.[Cu+2].c1ccc(CN2CCCNCCN(Cc3ccccc3)CCCNCC2)cc1,Leishmania donovani,parasite growth,THP-1 macrophages,intracellular amastigotes,,IC90,> 15 µM
[O-][N+]1=C(c2ccc(Cl)cc2)C2=NCCCCN2c2ccccc21,Bacteroides fragilis,microbial growth,ATCC25285,,,MIC,2 µg/mL
[Cl-].[Cl-].[Mn+2].c1ccc(CN2CCNCCN(Cc3ccccc3)CCNCC2)cc1,Leishmania donovani,"parasite growth, resazurin",,"72 h, promastigote",,IC90,9.12 µM
CCN1CCNC1=[S+][Ag-3]([O][N+](=O)[O-])([P+](c1ccccc1)(c1ccccc1)c1ccccc1)[P+](c1ccccc1)(c1ccccc1)c1ccccc1,Enterococcus faecalis,,"MTCC 439, DMSO","0.1 mL of 50 mg/mL in 8 mm well, 18 to 24 h",,inhibition zone diameter,23 mm
O=C(C1CCN(c2nnnn2-c2ccccc2)CC1)N1CCCc2ccccc21,Plasmodium falciparum,,"erythrocytes, Dd2, pi4k variant",,,IC50,0.778 µM
CC(=O)[O-].F[P-](F)(F)(F)(F)F.[Co+2].c1ccc(CN2CCCN3CCN(CCCN(Cc4ccccc4)CC3)CC2)cc1,Leishmania donovani,"parasite growth, resazurin",,"72 h, promastigote",,IC90,> 20 µM
O=S(=O)(CCC(F)(F)F)N[C@H]1CC[C@H](Nc2ncc3c(-c4ccccn4)n[nH]c3n2)CC1,Leishmania donovani,,promastigotes,,reference: wild type,fold change EC50,1
COc1ccc(-c2oc3ccc(-c4cc(OC)c(OC)c(OC)c4)cc3c2C#CC2(O)CCCCC2)cc1,hepatitis C virus,HCV replicon replication,HCV genotype 1b subgenomic replicon cells,10 µM,reference: DMSO,remaining activity,106%
CCn1c(-c2ccc(OC)cc2)c(-c2ccc(OC)cc2)n(CC)c1=[Se+][Au-][P+](CC)(CC)CC.[Cl-],"Acinetobacter baumannii, carbapenem-resistant","measured: IL-6, TNF-alpha","BALB/c mouse, skin wound infection, wound tissue","dose not given, day 14",reference: untreated infected,proinflammatory gene expression,decreased
CCCCn1c2ccccc2c2ccnc(-c3ccccc3Cl)c21,Echinococcus granulosus sensu stricto,,protoscoleces,48 h,,LC50,61.2 ± 5.29 µM

# Repeated from above:
SMILES,organism,test,system,setting,scale,endpoint,value
O=C(C1CCN(c2nnnn2-c2ccccc2)CC1)N1CCCc2ccccc21,Plasmodium falciparum,,"erythrocytes, Dd2, pi4k variant",,,IC50,0.778 µM
